Assay results pooled from the literature.
Parts stem from different laboratories: compare values within a part only.

Series 1
Target: Histone acetyltransferase KAT6A, winged helix 2, GST fusion (KAT6A, Homo sapiens, UniProt Q92794, residues 85-181)
Technique: protein binding microarray
Molecule type: double-stranded DNA, one strand shown
Sample: in vitro
Concentration: not given
Setting: 8-mer, flanks averaged, mean of 2 arrays, mostly near background
Relative to: not given
Reading: higher = stronger binding
Target sequence (chain): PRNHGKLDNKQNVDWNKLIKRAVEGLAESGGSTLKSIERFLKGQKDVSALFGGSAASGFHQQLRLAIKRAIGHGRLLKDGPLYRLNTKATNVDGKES
Sequence | E-score
AACTACAT | -0.131
AGGAACAA | -0.0738
AGTTGTAA | 0.00324
CGGGCTAG | 0.0639
CTCATCAA | -0.117
CGTAGCAA | 0.0191
CGTACACC | -0.147
CATTTTTC | 0.112
AATATTTC | 0.101
CTCGACTC | -0.06
AGGTGCCA | -0.0698
CCCGTCCC | 0.139
ACCATGGC | 0.114
CCTTCGAG | -0.0139
AAGGATGT | -0.174
CTGTCGGA | 0.213
AACACTAT | 0.0637
TGTGACAA | -0.00587
GATATCCA | 0.111
ACTTTGGG | -0.056
ATCACTAC | -0.0631
CCCGTGTA | -0.0431
GCGCCGGA | 0.145

Series 2
Target: Fragile X messenger ribonucleoprotein 1, C-terminal low-complexity region (Fmr1, Mus musculus, UniProt P35922)
Technique: RNA Bind-n-Seq
Molecule type: RNA
Sample: in vitro
Concentration: 200 nM
Setting: whole 134-nt RNA, ends assumed
With: 150 mM LiCl
Relative to: input library
Reading: higher = stronger binding
Library: 7-deaza-guanosine replaces G
Constant ends, left off below: GGGAGUUCUACAGUCCGACGAUC … UGGAAUUCUCGGGUGUCAAGG
Sequence | log2 enrichment
CUCAAGUCCUGUGCUACACAUCGUAUGUACCGAAUCGGAAAGGUUUGGUUUGGAAAGUAUUAUGUUACGCCGUUCGGAUCUGCACUUCCA | -0.575
UCCUCAAGUCCUGUGCUACACAUCGUAUGUACCGAAUCGGGCGGGGCGGCGGAAAGUAUUAUGUUACGCCGUUCGGAUCUGCACUUCCAG | 0.477
UCCUGUGCUACACAUCGUAUGUACCGAAUCGGGGUUUUUGGGGUGGGGUUUUUUUGGGGAAAGUAUUAUGUUACGCCGUUCGGAUCUGCA | -1.46
AGUCCUGUGCUACACAUCGUAUGUACCGAAUCGGGAAAGGGAAAAAGGGUUUUUGGGAAAGUAUUAUGUUACGCCGUUCGGAUCUGCACU | -2.43
CACAGACAACACGCACCCACACAGACACAGAGGGAAGGGGUUGGGAUGGGGACAGGGUGCACAGCAGGGUGGGGUAGGACCCCAGCCCCU | 0.601
UUCUGAGAAGGUUGCGCAGCAGCUGUGCCCGGCAGUCUAGAGGCGCAGAAGAGGAAGCCAUCGCCUGGCCCCGGCUCUCUGGACCUUGUC | -2.29
CCUGUGCUACACAUCGUAUGUACCGAAUCGGUUUUUUUGGGUUUUUUUGGGUUUUUUUGGGAAAGUAUUAUGUUACGCCGUUCGGAUCUG | -0.933
GUCCUGUGCUACACAUCGUAUGUACCGAAUCGGGAAAAAGGGUUUGGGUUUUUUUGGGAAAGUAUUAUGUUACGCCGUUCGGAUCUGCAC | -2.37

Series 3
Target: RNA binding protein fox-1 homolog 2, RRM domain, GST-SBP tag (RBFOX2, Homo sapiens, UniProt O43251-10, residues 100-194)
Technique: RNA Bind-n-Seq
Molecule type: RNA
Sample: in vitro
Concentration: 365 nM
Setting: natural RNA segment, single round, ends assumed
Relative to: no-protein control
Reading: higher = stronger binding
Constant ends, left off below: GGGAGUUCUACAGUCCGACGAUC … UGGAAUUCUCGGGUGCCAA
Target sequence (chain): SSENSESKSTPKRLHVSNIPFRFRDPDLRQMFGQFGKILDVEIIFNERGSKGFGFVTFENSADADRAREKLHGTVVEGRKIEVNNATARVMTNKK
Sequence | RBNS enrichment (R)
CAGCUUAAAAUCCAAAGUGUCAUAUUUACUGGUCCUGGAGACAAACUUGUUCAAAAGAACAUCAACGUGCAAUGUUUUAAGGUCUAUCUUAAGAAGCCCUGGCCAAAUUU | 0.344
CACAAGGAAUCUCUUAGAGUUUUGCAGCAAACAGGUGGUGCACAGGUCUGGAAGGUCUGGUCUCCCUUGGUCUUCCAUGGGAUGCUUAAUGUGGAGGGGAGAUAGAGAUU | 1.81
GGCCUGAUGAUGGUGGGUGGGUGGGAUGAGUACCCCCUCAAACCCUGCCCUCCUUAGACCUGAGGGACCCUUCGAGAUCAUCACUUCCUUGCCCCCAUUUCACCCAUGGG | 0.183
AAAACUCUCAAGAAAGCAAAUUGCACCUCAGCUGGAUUGAUUUCCAAAUGCUAGCAUGUACUGUAUGGGAGGAUGAUCCAGAUGUUUCAAAGAGAAUUUCUCUUAGUUUA | 13
UUCGGGAUCUGCUCCUUCUGUCCCAGGAGGUCUACUGGAGUUAGUUGUGUGGUCACCAAGAGGACUGAGGACACAGUAGCCCUGAGCCAAGUUGGGCUCAUCUUCCAGGG | 0.385
GGUGGAGUCUGUGAGGCUAGAAUAUCUCUCAGCAAGAGCAGCAUACCUCCAUGUUGUGAAGGCAUCUGUUCAGUGAAGCACUACGAAAAUUUGAAACCAAGGGACAAGAC | 0.895
AAAAGCAUGGGAAGAUUUUUAUUUAUCAAAAUAUAGAGGAAAUGUAGACAAAAUGGAUAUAAAUGAAAAUUACCAUGUUGUAAAACCUUGAAAAUCAGAUUCUAACUGGA | 10.2
AAAAAUGGAGCAACGUGAGUGACCGCCCAAGGUCACAGGCACAGAACCUUUCCCCUGCUAUCUCCCUUCCUGCUUCGAAGGACUCAUUCUUUCCUCCCACUUCCACCCCA | 0.432

Series 4
Target: Prothrombin, mature alpha-thrombin (F2, Homo sapiens, UniProt P00734)
Technique: aptamer microarray, sandwich
Molecule type: DNA with 2'F-ANA
Sample: in vitro
Concentration: 200 nM
Setting: whole 15-mer aptamer, many near background
With: Cy3 exosite-II aptamer, 400 nM
Reading: higher = stronger binding
Sequence: GGTTGGTGTGGTTGG
Modification | mean fluorescence intensity
2'F-ANA at 1 3 6 9 10 12 13 15 | 94.1 a.u.
2'F-ANA at 1 2 5 6 10 | 47.4 a.u.
2'F-ANA at 2 4 5 7 12 13 14 15 | 53 a.u.
2'F-ANA at 3 6 12 13 15 | 1090 a.u.
2'F-ANA at 1 3 4 7 9 12 13 14 | 67.4 a.u.
2'F-ANA at 1 2 3 4 8 9 11 15 | 223 a.u.
2'F-ANA at 1 2 4 5 6 7 9 10 12 | 293 a.u.
2'F-ANA at 1 2 5 6 7 10 11 12 | 77.2 a.u.
2'F-ANA at 1 2 4 5 8 10 14 15 | 47.2 a.u.
2'F-ANA at 1 2 3 4 10 11 | 58.9 a.u.
2'F-ANA at 4 5 7 8 14 15 | 47.6 a.u.
2'F-ANA at 1 3 7 8 10 12 13 15 | 116 a.u.
2'F-ANA at 3 5 6 9 12 13 14 15 | 52.5 a.u.
2'F-ANA at 5 9 12 15 | 155 a.u.
2'F-ANA at 2 3 5 12 13 15 | 144 a.u.
2'F-ANA at 2 3 4 6 7 8 10 12 14 | 174 a.u.
2'F-ANA at 1 4 5 6 10 12 13 14 | 48.2 a.u.
2'F-ANA at 2 3 4 5 7 9 11 12 15 | 253 a.u.
2'F-ANA at 4 6 8 9 11 12 13 14 | 73 a.u.
2'F-ANA at 2 7 8 9 14 15 | 157 a.u.
2'F-ANA at 3 7 8 9 10 12 13 14 15 | 432 a.u.

For quick reference, copied from above (series 1):
Sequence | E-score
CTCGACTC | -0.06
AGGTGCCA | -0.0698
CCCGTCCC | 0.139
ACCATGGC | 0.114
CCTTCGAG | -0.0139
AAGGATGT | -0.174
